Published values pooled from the literature.
Each line is one published result; not all experiments were run side by side. “And” joins repeats or separate records; there may be more than shown. Numbers after ± are the reported error.

Structure (SMILES)	assay	system	conditions	scale	measurement	value
CCn1c(=O)c(-c2cc(NC(=O)Nc3ccccc3)c(F)cc2Br)cc2cnc(NC)cc21	refers to: lipase increased	healthy human, matched to mild hepatic impairment	oral, 50 mg single dose	–	participants with drug-related TEAE	50%
CC(=O)N(C)C1CCN(c2cc(F)cc(NC(=O)c3cc4c(F)ccc(C)c4[nH]3)c2)C1 (stereo not drawn)	–	CD1 mouse, plasma	intravenous, 1 mg/kg, 0.167 h	–	plasma concentration	785 ng/mL
CO[C@@H]1[C@H](O)[C@@H](CO)O[C@H]1n1c([N+](=O)[O-])nc2c(=O)[nH]c(N)nc21	depurination, RP-HPLC	citrate-phosphate buffer 0.5 mM	140 min, pH 5, 37 °C	–	nucleoside remaining fraction	0.875
CNC(=O)c1ccc(-c2cnc3ncc(Cc4ccc5ncccc5c4)n3n2)cc1F	–	Japanese patients	oral, 400 mg, any grade	–	Hypokalaemia dose reduction/interruption	1%
Cc1cc(NC2CCN(C(=O)OC3CCN(C(=O)/C=C/CN(C)C)C3)CC2)n2ncc(C(C)C)c2n1 (stereo not drawn)	Phase I dose escalation CTCAE v4.0, refers to: abdominal pain	patients with advanced solid tumours	dose not given, Total dosing any grade	–	patients with adverse event	26%
CCCCCCOC(=O)NC(=N)c1ccc(NCc2nc3cc(C(=O)N(CCC(=O)OCC)c4ccccn4)ccc3n2C)cc1	–	EpiIntestinal microtissues	5 µM, 2 h, no inhibitor	–	efflux ratio	3.6
N#Cc1ccc2c(c1)[C@H]1CCCN(C(=O)c3ccc4[nH]cnc4c3)[C@H]1C2	–	human males	40 mg, day 7	–	SHBG level	39.6 nmol/L
O=C(N[C@H](Cc1c[nH]c2ccccc12)C(=O)Nc1ccncc1)c1ccc(-c2ccc(F)c(C(F)(F)F)c2)cc1F	–	Swiss Webster mouse, female, liver	oral, 50 mg/kg, 8 h, 20% HPβCD vehicle	–	concentration	50.8 µM
CCOC(=O)N1C[C@@H](C2CCCCC2)N[C@@H](c2ccc(C(=O)OC)cc2)C1	shake-flask, 1-octanol/buffer	–	pH 7.4	–	logD	> 4.7
COc1cc2c(cc1OC)CN(CCc1ccc(NC(=O)c3cccc4c(=O)c5cccc(OC)c5[nH]c34)cc1)CC2	–	Sprague Dawley rats, plasma	iv infusion, 0.89 mg/h/kg, 4 h	–	free plasma concentration	5.3 ng/mL
CC1(CNC(=O)c2ccc(C#CC#Cc3ccccc3)cc2)NC(=O)NC1=O (stereo not drawn)	–	octanol/buffer	pH 7.4	–	logD	4.47
CC[C@H](C)CCCCC(=O)N[C@@H](CCN)C(=O)N[C@H](C(=O)N[C@@H](CCN)C(=O)N[C@H]1CCNC(=O)[C@H]([C@@H](C)O)NC(=O)[C@H](CCN)NC(=O)[C@H](CCN)NC(=O)[C@H](CC(C)C)NC(=O)[C@@H](Cc2ccccc2)NC(=O)[C@H](CCN)NC1=O)[C@@H](C)O	LC-MS/MS	mild renal insufficiency patients, urine	IV, 0.75 mg/kg, 0-6 h, arithmetic mean	–	cumulative urinary excretion	0.632 mg
CCn1c(=O)c(-c2cc(NC(=O)Nc3ccccc3)c(F)cc2Br)cc2cnc(NC)cc21	–	human plasma	150 ng/mL, -20 °C, 3 cycles, low QC	–	freeze-thaw stability accuracy	12.3%
O=C(Nc1ccc(Cl)cc1)Nc1cc(Cl)c(Cl)cc1O	reverse phase LC, C18	acetonitrile gradient, 0.1% formic acid	converted from retention time	baseline: Valko CHI standards	chromatographic hydrophobicity index	150
C=CC(=O)NC1CCN(c2ncc3ncnc(Nc4ccc(Oc5ccc6c(c5)ncn6C)c(C)c4)c3n2)CC1	–	healthy male volunteers	intravenous then oral, dose not given, 1 week, oral 2 h after infusion	–	subjects with adverse events	29%
Nc1ncn([C@H]2C[C@H](O)[C@@H](CO)O2)c(=O)n1	UHPLC-MS/MS	C57BL/6 mice, female, plasma	oral, 0.4 mg/kg	–	AUC(0-4 h)	189 ng·h/mL
CCCCOC(=O)N1CCN(C(=O)[C@H](CP(=O)(O)O)NC(=O)c2cc(N3CC[C@H](OC)C3)nc(-c3ccccc3)n2)CC1	–	human	subcutaneous, 16 mg, 1 h post-dose	baseline: baseline	change in PR interval	0.2 ± 11.1 ms
CC[C@H](C)[C@H](NC(=O)[C@H](Cc1ccccc1)NC(=O)[C@H](CCC(=O)O)NC(=O)[C@H](CCCCNC(=O)COCCOCCNC(=O)COCCOCCNC(=O)CC[C@H](NC(=O)CCCCCCCCCCCCCCCCC(=O)O)C(=O)O)NC(=O)[C@H](C)NC(=O)[C@H](C)NC(=O)[C@H](CCC(N)=O)NC(=O)CNC(=O)[C@H](CCC(=O)O)NC(=O)[C@H](CC(C)C)NC(=O)[C@H](Cc1ccc(O)cc1)NC(=O)[C@H](CO)NC(=O)[C@H](CO)NC(=O)[C@@H](NC(=O)[C@H](CC(=O)O)NC(=O)[C@H](CO)NC(=O)[C@@H](NC(=O)[C@H](Cc1ccccc1)NC(=O)[C@@H](NC(=O)CNC(=O)[C@H](CCC(=O)O)NC(=O)C(C)(C)NC(=O)[C@@H](N)Cc1cnc[nH]1)[C@@H](C)O)[C@@H](C)O)C(C)C)C(=O)N[C@@H](C)C(=O)N[C@@H](Cc1c[nH]c2ccccc12)C(=O)N[C@@H](CC(C)C)C(=O)N[C@H](C(=O)N[C@@H](CCCNC(=N)N)C(=O)NCC(=O)N[C@@H](CCCNC(=N)N)C(=O)NCC(=O)O)C(C)C	12-lead Holter ECG	healthy humans	subcutaneous, 1.5 mg once weekly, 12 h, steady state	baseline: placebo	QTcF change from baseline	-0.7 ms
CCC[C@H](C)[C@H]1CN(C(=O)OCC)C[C@@H](c2ccc(-c3ccccc3)cc2)N1	shake-flask, 1-octanol/buffer	–	pH 7.4	–	logD	> 4.7

Structure (SMILES)	assay	system	conditions	scale	measurement	value
CCc1nc(C(N)=O)c(Nc2ccc(N3CCC(N4CCN(C)CC4)CC3)c(OC)c2)nc1NC1CCOCC1	–	mouse plasma	425 ng/mL, three freeze-thaw cycles	–	freeze-thaw stability accuracy	97.9%
O=[N+]([O-])c1cc2c3ccccc3ccc2c2ccccc12	refers to: adenoma mammary tumours	female Sprague-Dawley rats	intramammary, 12.3 µmol per rat, up to 32 weeks	–	tumours per rat	0.17 ± 0.65
CN(C)c1ccc2c(c1)c(=O)n(-c1ccc(C[C@H](NC(=O)c3c(Cl)cccc3Cl)C(=O)O)cc1)c(=O)n2C	–	cynomolgus monkey, hepatocyte suspension	scaled in vitro unbound	–	passive intrinsic uptake clearance	4.9 mL/min/kg
CCO	–	human	–	–	flushing incidence	61.1%
C[C@@H]1COCCN1c1cc(C2([S@](C)(=N)=O)CC2)nc(-c2cc[nH]c3nccc2-3)n1	–	Japanese advanced solid tumour patients	oral, 240 mg twice daily, any grade	–	Nasopharyngitis incidence	16.7%
CCCCC1=NC2(CCCC2)C(=O)N1Cc1ccc(-c2ccccc2S(=O)(=O)Nc2noc(C)c2C)c(COCC)c1	–	healthy adult volunteers, plasma	oral, 400 mg, single dose, fed, crushed tablet	–	AUC(0-inf)	71600 ng·h/mL
CCN1/C(=C/C(C)=O)Sc2ccc(F)cc21	–	cynomolgus monkey	oral, 100 mg/kg, 4 h post-dose	–	PR interval	92 ± 4 ms
CN(C)C/C=C/C(=O)Nc1cc2c(Nc3ccc(F)c(Cl)c3)ncnc2cc1O[C@H]1CCOC1	–	MES buffer	100 µM, 23 h, pH 5.5, 37 °C, together with: cysteine 10 mM	–	cysteine adduct formation	92%
Cc1ccc([C@@H]2O[C@H](CO)[C@@H](O)[C@H](O)[C@H]2O)cc1Cc1ccc(-c2ccc(F)cc2)s1	–	Japanese type 2 diabetes patients	200 mg, day 17, 24 h urine collection	baseline: baseline	urinary potassium excretion change	-0.424 mEq
Cc1cc2sc(N)nc2c2cccnc12	LC-MS	BALB/c mice, female	intraperitoneal, 30 mg/kg, 0.25 h	–	plasma concentration	1570 ± 120 ng/mL
C1CCc2c(c(N3CCOCC3)nc3sc4c(N5CCNCC5)nnnc4c23)C1	UHPLC-MS peak area	human liver microsomes	1 µM, 15 min, pH 7.4	–	metabolite share of drug-related material	81.7%
O=C(Nc1nc2cccc(-c3ccc(CN4CCS(=O)(=O)CC4)cc3)n2n1)C1CC1	refers to: animal bite	human rheumatoid arthritis patients	oral, 150 mg once daily, 4 weeks, regardless of relatedness	–	treatment-emergent adverse events	6.7%
COc1cc(N2CCC3(CCN(C)CC3)CC2)ccc1Nc1ncc(Cl)c(Nc2ccccc2P(C)(C)=O)n1	population PK model	human	oral, final model without outliers	–	V1/F	347 L
[O]=[Co].[O]=[Co][O][Co]=[O]	–	rat, female, urine, 24-h collection	oral gavage, single, 300 mg/kg (220 mg Co/kg), day 1, vehicle 0.5% HPMC	–	cobalt concentration	5160 µg/L
O=C(COc1ccc(Cl)cc1)NC12CC(c3nnc([C@H]4C[C@@H](OC(F)(F)F)C4)o3)(C1)C2	–	human both sexes	oral, 200 mg single dose	–	participants with TEAE	66.7%
CCc1cc(C(=O)NC)c2nccc(N3CCc4c(cc(Cn5ccnc5)cc4-c4cn(C)nc4C(F)(F)F)C3=O)c2c1	–	Sprague Dawley rat	oral, 100 mg/kg twice daily, day 5, 7-day toxicology study	–	body weight	233 ± 3.8 g
C[C@H](N[C@@H](CCc1ccccc1)C(=O)O)C(=O)N1[C@H](C(=O)O)C[C@H]2CCCC[C@@H]21	–	human plasma	30 pg/mL, 3 cycles at -20 °C	baseline: nominal	freeze-thaw stability	81.1 ± 6%
CCCCCCCC(=O)c1c(OC)cc(OC)cc1C(=O)OC	–	mouse	intraperitoneal, 10 mg/kg, together with: cyclophosphamide	baseline: cyclophosphamide alone	kidney weight	decreased
C[C@H]1Oc2cc(cnc2N)-c2c(nn(C)c2C#N)CN(C)C(=O)c2ccc(F)cc21	population PK	normal renal function patients, plasma	oral, 100 mg once daily, cycle 1 day 15, steady state	–	CL	253 mL/min

Structure (SMILES)	assay	system	conditions	scale	measurement	value
O=C(Nc1ccc(OC(F)(F)Cl)cc1)c1cnc(N2CC[C@@H](O)C2)c(-c2ccn[nH]2)c1	per laboratory record, refers to: AST increase	human patients	oral, dose not given, dose-finding study	–	grade ≥2 event rate	0.3%
Oc1ccc(/C=C/c2cc(O)cc(O)c2)cc1	–	rat, azoxymethane-injected, blood at sacrifice	100 mg/kg	–	total protein	6.5 g/dL and 6.6 g/dL
COc1ccc(CNc2nc(-c3ccc(C(=O)O)cc3)nc3c2c2ccccc2n3C)cc1Cl	–	NSG mice	dose not given, day 4	–	body weight	24.3 g and 23.7 g and 25.2 g and 21.1 g
C[C@@H](N)C1CCN(S(=O)(=O)c2cccc3cnccc23)CC1	–	healthy volunteers	25 mg, fasted	–	participants with orthostatic hypotension	0%
Fc1ccc(-c2nc(-c3c(F)cccc3F)[nH]c2-c2ccncc2)cc1	PAMPA	–	16 h	–	membrane retention	82.9 ± 1.3%
C[C@@H](c1ncncc1F)[C@](O)(Cn1cncn1)c1ccc(F)cc1F	–	human	oral, 200 mg, drug interaction trial	–	grade 3-4 TEAE	0%
CCn1cc(C(=O)N2CCOCC2)c(=O)c2cc(NC3Cc4ccccc4C3)cnc21	–	humans, fasted, plasma	oral, 300 mg, single dose, suspension	–	AUC(0-inf)	3920 ng·h/mL
O=C(O)CN1CCCN2CCN(Cc3ccccc3)CCCN(CC1)Cc1cccc(n1)C2	–	64Cu complex	24 h, pH 7.4, 37 °C, together with: DOTA excess	–	intact complex	96%
CN(CCC(=O)O)C(=O)c1ccc2c(c1)CC[C@@H]1[C@@H]2CC[C@]2(C)C(c3cncc(F)c3)=CC[C@@H]12	–	premenopausal women, endometriosis pain, serum	60 mg twice daily, visit 4, median	baseline: baseline	direct bilirubin change	0.2 mg/dL
Clc1cc(Cl)cc([C@@H]2COC[C@H](C3CCCCC3)N2)c1	shake-flask, 1-octanol/buffer	–	pH 7.4	–	logD	> 4.7
Cc1cc(-c2nccc3c2ccn3CC(=O)Nc2ccc(-c3cnccn3)cn2)ccn1	–	human	15 mg once daily, multiple ascending dose	–	general or administration site disorders	66.7%
Cc1nc2ncnn2c(O)c1NS(=O)(=O)c1ccc(Br)cc1	–	octanol/buffer	pH 7.4	–	logD	-0.25
CCOC(=O)N1C[C@@H](C2CCCC2)N[C@@H](c2cccc(Br)c2)C1	shake-flask, 1-octanol/buffer	–	pH 7.4	–	logD	> 4.7
Clc1ccc(Nc2ncnc3ccc(-c4cccc(N5CCOCC5)c4)cc23)cc1Cl	–	human liver microsomes	–	–	CLint	60 µL/min/mg
FC(F)(F)c1ccc(CNc2ccc(Cc3c[nH]c4ncc(Cl)cc34)cn2)cn1	refers to: Dyspepsia	patients with advanced solid tumours, non-TGCT cohort	oral, 1000 mg/day, grade 3 or higher	–	treatment-related adverse events	0%
CCn1c(SCC(=O)Nc2cccc(OC)c2)nnc1-c1ccncc1	–	octanol/buffer	pH 7.4	–	logD	1.96
C[C@@H]1CCO[C@H]2Cn3cc(C(=O)NCc4ccc(F)cc4F)c(=O)c(O)c3C(=O)N12	population PK, post-hoc	infants aged ≥1 months, 3 to <6 kg, plasma	oral, 10 mg dispersible tablet, steady state, geometric mean	–	AUC(0-24)	77100 ng·h/mL
COc1cccc(NC(=O)CSc2nnnn2C)c1	–	octanol/buffer	pH 7.4	–	logD	1.53
CC(C)(C(=O)N1CCOc2c(C#N)cncc2C1)C(F)F	refers to: Nausea	human	oral, 40 mg, CSF pharmacokinetic cohort	–	subjects with adverse event	16.7%

Excerpt of the above:
Structure (SMILES)	assay	system	conditions	scale	measurement	value
CCO	–	human	–	–	flushing incidence	61.1%
Oc1ccc(/C=C/c2cc(O)cc(O)c2)cc1	–	rat, azoxymethane-injected, blood at sacrifice	100 mg/kg	–	total protein	6.5 g/dL and 6.6 g/dL
CCN1/C(=C/C(C)=O)Sc2ccc(F)cc21	–	cynomolgus monkey	oral, 100 mg/kg, 4 h post-dose	–	PR interval	92 ± 4 ms
Clc1ccc(Nc2ncnc3ccc(-c4cccc(N5CCOCC5)c4)cc23)cc1Cl	–	human liver microsomes	–	–	CLint	60 µL/min/mg
C1CCc2c(c(N3CCOCC3)nc3sc4c(N5CCNCC5)nnnc4c23)C1	UHPLC-MS peak area	human liver microsomes	1 µM, 15 min, pH 7.4	–	metabolite share of drug-related material	81.7%
Fc1ccc(-c2nc(-c3c(F)cccc3F)[nH]c2-c2ccncc2)cc1	PAMPA	–	16 h	–	membrane retention	82.9 ± 1.3%
CC(=O)N(C)C1CCN(c2cc(F)cc(NC(=O)c3cc4c(F)ccc(C)c4[nH]3)c2)C1 (stereo not drawn)	–	CD1 mouse, plasma	intravenous, 1 mg/kg, 0.167 h	–	plasma concentration	785 ng/mL
